# Experimental data from different studies.
# Each line is one published result; not all experiments were run side by side. Values joined by “and” are separate records of one study, mostly repeats; a detail may differ. Numbers after ± are the reported error.
SMILES,assay,system,conditions,how to read,measurement,result
O=S(=O)(NCCNC/C=C/c1ccc(Br)cc1)c1cccc2cnccc12,,mouse zygotes,"20 µM, 120 h post-hCG",,embryos reaching 4-cell,0% and 5%
N#Cc1ccc2c(c1)[C@H]1CCCN(C(=O)c3ccc4[nH]cnc4c3)[C@H]1C2,refers to: FPG,human,"20 mg once daily, day 28, adjusted mean",,change from baseline,6.6 mg/dL
O=C(NO)c1ccc(CN(c2cnccn2)c2cnccn2)cc1,,human,800 mg BID,,progression-free survival,9 months
C[C@]12CC[C@@H]3c4ccc(O)cc4C[C@@H](CCCCCCCCC[S+]([O-])CCCC(F)(F)C(F)(F)F)[C@H]3[C@@H]1CC[C@@H]2O (some centres unmarked),,female nude mouse LCC2 xenograft,"2.0 mg/kg, day 13, tamoxifen-resistant",,tumour volume,138 mm3 and 82.4 mm3 and 105 mm3 and 102 mm3 and 101 mm3 and 85.7 mm3 and 110 mm3
O=C(O)CCc1nccc2c1[nH]c1ccccc12,,"mouse, acute hyperuricaemia model","oral, 2 mg/kg",,decrease in serum uric acid,42.1%
COc1ccc(-c2cncc(N[C@@H](C)c3cccc(NC(=O)c4cncc(C)c4)c3)n2)cc1OC,refers to: rno-miR-382-5p,"rat SU5416/hypoxia model, lung",dose not given,relative to: SU5416/hypoxia vehicle,fold change,2.12
C[C@@H](O)CCOC(=O)C[C@@H](C)O,,"human, plasma","60 min, log2-transformed values",,metabolite level,4.54 ± 0.25 µmol/L
C[C@H]1C[C@H]2CSC(N)=N[C@@]2(c2nc(NC(=O)c3ccc(OC(F)F)cn3)cs2)CO1,refers to: Aβx-40,"healthy adults, plasma","50 mg once daily, day 2",relative to: placebo,percent change from baseline,-58.5%
NCC(=O)Nc1cncc(-c2nn3c(=O)cc(N4CCNCC4)nc3s2)c1,"ADP-induced platelet aggregation, light transmission aggregometry","human stable CAD patients on aspirin, platelets ex vivo","0.05 mg/kg, 15 min post dose, together with: 20 µM ADP",relative to: placebo difference,inhibition of platelet aggregation,69.7%
OCC(O)CO,ELISA,"Mus musculus male wild type, serum","drinking water, 5% w/v, 2 days",,FGF21 level,504 pg/mL and 702 pg/mL and 753 pg/mL and 849 pg/mL and 320 pg/mL
CCc1c(C)nc(-c2ccc(Cl)s2)nc1Nc1ccc(CC(=O)O)cc1,,"mice, chronic ethanol plus binge","intraperitoneal, 0.3 mg/kg daily, ethanol diet 4 weeks, dosed last two",relative to: vehicle,serum AST,decreased
C[C@H]1O[C@@H](O[C@H]2CC[C@@]3(C)[C@@H](CC[C@]4(C)[C@@H]3C=C[C@]35OC[C@@]6(CCC(C)(C)C[C@H]63)[C@@H](O)C[C@]54C)[C@]2(C)CO)[C@H](O)[C@@H](O[C@@H]2O[C@H](CO)[C@@H](O)[C@H](O)[C@H]2O)[C@H]1O,,"chronic-plus-binge ethanol-fed mice, liver","dose not given, high dose",relative to: area,Oil Red O area,11% and 8.57% and 4.87% and 3.97%
Cc1cc(Nc2cc3ncccc3c(N[C@@H]3C[C@H]4CC[C@@H](C3)N4CCC#N)n2)n[nH]1,,moderate-severe ulcerative colitis patients,"270 mg, day 28, Mayo subscore, unit not given",relative to: baseline,change in stool frequency,-1
CC[C@@H]1[C@H](F)C(=O)N[C@@H]1COc1nccc2cc(C(N)=O)c(OC)cc12,"ATP-site probe binding, ActivX profiling, refers to: SRPK1, SRPK2",THP-1 cell lysate,"0.2 mM, Lys1 site",,inhibition,-5.5%
OC(CCN1CCCCC1)(c1ccccc1)C1CC2C=CC1C2 (centres unmarked),resting-state EEG,healthy elderly humans,"oral, 4 mg, eyes open, LS mean",relative to: baseline,change in EEG Alpha1-power Pz-O2,-27.9%
NC(=O)c1cnc2[nH]ccc2c1N[C@@H]1[C@@H]2CC3C[C@H]1C[C@@](O)(C3)C2,"flow cytometry, refers to: regulatory T cells","Japanese healthy subjects, peripheral blood","oral, 10 mg twice daily, day 4",,change from baseline,-1.08%
CN(C(=O)n1cnc(-c2ccc[n+]([O-])c2)c1)C1CCCCC1,refers to: OEA,"human, plasma",10 mg single dose,,AUC(0-t),709 ng·h/mL
C[C@H](Oc1ccc(Br)cc1-c1ccon1)C(=O)O,muscle velocity recovery cycles,"human, tibialis anterior muscle","1200 mg single dose, 3.5 h post-dose, frequency ramp, first response at 30 Hz",relative to: placebo,peak amplitude change,7.5%
Cl.O=C(c1cc(Cc2n[nH]c(=O)c3ccccc23)ccc1F)N1CC(CNC2CC2)C1,,"BALB/c nude mouse, CAPAN-1 xenograft","oral, 50 mg/kg once daily, 28 days",,tumour growth inhibition,62.2%
CC(C)[C@H](C(=O)Nc1ccc(C(=O)NO)cc1)c1ccccc1,,"human, right ear",9 months after treatment,,speech discrimination,100%
FC(F)(F)Oc1cccc(-c2ccnc3[nH]c(C(F)(F)F)nc23)c1,,GAN diet MASH mice,"300 mg/kg, 31 days",relative to: GAN control,body weight,no effect
O=C(O)CNC(=O)Cc1ccccc1,,"ventricular cardiomyocytes, C57BL/6 mouse","dose not given, 0.304 s",,sarcomere length,1.71 µm
c1ccc(-c2n[nH]cc2-c2ccnc3ccccc23)nc1,"kinase binding, competitor, MIB/MS competition, refers to: SAK1",Candida albicans cell lysate,100 nM,relative to: DMSO,log2 fold change,1.25
CC(=O)NCC(=O)NCC(=O)N[C@H](C(=O)N[C@@H](Cc1ccc(O)cc1)C(=O)N[C@@H](CO)C(=O)N[C@H]1CSSC[C@@H](C(=O)N[C@@H](CCCNC(=N)N)C(=O)N2CCC[C@H]2C(=O)N[C@@H](CCC(N)=O)C(=O)N[C@@H](CCCNC(=N)N)C(=O)NCC(=O)NCCC(=O)N[C@@H](CCCCNC(=O)CN(CC(=O)NCCCC[C@H](NC(=O)CCNC(=O)CNC(=O)[C@H](CCCNC(=N)N)NC(=O)[C@H](CCC(N)=O)NC(=O)[C@@H]2CCCN2C(=O)[C@H](CCCNC(=N)N)NC(=O)[C@@H]2CSSC[C@H](NC(=O)[C@H](CO)NC(=O)[C@H](Cc3ccc(O)cc3)NC(=O)[C@@H](NC(=O)CNC(=O)CNC(C)=O)[C@@H](C)O)C(=O)N[C@@H](Cc3c[nH]cn3)C(=O)N[C@@H](Cc3ccccc3)C(=O)NCC(=O)N[C@@H](C)C(=O)N[C@@H](CC(C)C)C(=O)N[C@@H]([C@@H](C)O)C(=O)N[C@@H](Cc3c[nH]c4ccccc34)C(=O)N[C@@H](C(C)C)C(=O)N2)C(N)=O)C(=O)CCN)C(N)=O)NC(=O)[C@H](C(C)C)NC(=O)[C@H](Cc2c[nH]c3ccccc23)NC(=O)[C@H]([C@@H](C)O)NC(=O)[C@H](CC(C)C)NC(=O)[C@H](C)NC(=O)CNC(=O)[C@H](Cc2ccccc2)NC(=O)[C@H](Cc2c[nH]cn2)NC1=O)[C@@H](C)O,,healthy BALB/c mice,"subcutaneous, 0.08 mg/kg, 4 d, single dose",,reticulocytes,6.4%
CCO[C@H]1CCN(Cc2c(OC)cc(C)c3[nH]ccc23)[C@H](c2ccc(C(=O)O)cc2)C1,refers to: PNH-type erythrocytes,"PNH patients, blood","50 mg/200 mg, week 2, mean",,PNH red cell clone size,65.6%
CN(C)C(=O)Oc1cccc([N+](C)(C)C)c1,,rat cisatracurium-induced neuromuscular block,0.025 mg/kg,,twitch response,46.4% and 52.7% and 22.3% and 46.9%
N=C(N)NCCC[C@@H](NC(=O)CCOCCOCCNC(=O)[C@H](CCCCNC(=O)CC[C@H](NC(=O)c1ccc(NCc2cnc3nc(N)[nH]c(=O)c3n2)cc1)C(=O)O)NC(=O)CO/N=C/[C@H](F)[C@@H](O)[C@H](O)[C@H](O)CO)C(=O)NCC(=O)N[C@H](CC(=O)O)C(N)=O [fluorine-18 labelled],,"female nude mice, MDA-MB-231 xenograft, tumour",2.5 h,,tumour washout,37%
Cc1cc(-c2nnc(N)nc2-c2ccc(F)cc2)cc(Cl)n1,"NanoString, refers to: M1.core.Becker.IO signature","human mCRPC, peripheral blood","dose not given, 2 or 4 weeks","relative to: baseline, direction not given",GSVA score change,0.143
Cn1cc(Nc2nccc(-c3ccc4c(c3)CN(C3COC3)CC[C@H]4NC(=O)c3cn(C(C)(C)C)nn3)n2)cn1,refers to: NFAT in immune response,"splenic B cells, mice","30 mg/kg, IgD-activated in vivo","relative to: vehicle, direction not given",pathway activation z-score,3.9
N#Cc1ccc2c(-c3ccncc3)c(-c3ccc(F)cc3)nn2c1,"kinase binding, competitor, MIB/MS competition, refers to: CMK2",Candida albicans cell lysate,1 µM,relative to: DMSO,log2 fold change,-0.0537
O=C(COc1ccc(Cl)cc1)NC12CC(c3nnc([C@H]4C[C@@H](OC(F)(F)F)C4)o3)(C1)C2,refers to: CHAC1,"PBMC ex vivo stimulated, human ALS patients","200 mg, D21 predose",relative to: baseline,mRNA level change,-80.5%
CSCCNc1nc(SCCC(F)(F)F)nc2c1ncn2[C@@H]1O[C@H](COP(=O)(O)OP(=O)(O)C(Cl)(Cl)P(=O)(O)O)[C@@H](O)[C@H]1O,light transmittance aggregometry,"human patients, platelet-rich plasma","dose not given, 2 h, together with: ADP 20 µM",relative to: patients,patients with IPA above 80%,7.5%
Cc1oncc1C(=O)Nc1ccc(C(F)(F)F)cc1,refers to: dihydroorotate,"female CD-1 mice, pooled urine","oral, 30 mg/kg daily, 8-24 h after dose 1",,DHO concentration,5070 ± 255 µM
O=C(OC(C(F)(F)F)C(F)(F)F)N1CCN(Cc2cccc(Oc3ccccc3)c2)CC1,PET,"rhesus monkey, frontal cortex","intravenous, 0.1 mg/kg, pretreatment blocking, together with: [18F]T-401",,tracer distribution volume,7.2 mL/cm3
Cc1n[nH]c2ccc(-c3cc(OC[C@@H](N)Cc4ccccc4)cnc3-c3ccoc3)cc12,"kinase binding, competitor, MIB/MS competition, refers to: RIO2",Candida albicans cell lysate,100 nM,relative to: DMSO,log2 fold change,-0.284
CC(C)NCC(O)c1ccc(O)c(O)c1 (centres unmarked),,"ventricular cardiomyocytes, C57BL/6 mouse","dose not given, 0.82 s",,sarcomere length,1.56 µm
CCN1CCN(Cc2ccc(Nc3ncc(F)c(-c4cc(F)c5nc6n(c5c4)[C@H](C)CCC6)n3)nc2)CC1,,human advanced solid tumours,"300 mg, phase Ia monotherapy RECIST 1.1",,partial response,0%
Cc1cn(-c2ccc3n(c2=O)CCN([C@@H](C)[C@@H]2CC[C@H](c4cc(F)c(Cl)cc4C(F)(F)F)O2)C3=O)cn1,refers to: Aβ38,"human, cerebrospinal fluid","300 mg single dose, Tmax",relative to: placebo-adjusted baseline,change in CSF level,46%
CSc1ccc(C(=O)/C=C/c2cc(C)c(OC(C)(C)C(=O)O)c(C)c2)cc1,,db/db mice on MCD diet,"oral, 30 mg/kg daily, 45 days",relative to: untreated model,"serum TC, TG, AST and ALT",decreased
CN(CCOc1ccc(CC2SC(=O)NC2=O)cc1)c1ccccn1 (racemic),indirect calorimetry,"mice, diet-induced obese","dose not given, average over 72 h, end of treatment",,locomotor activity,377 ± 228 counts/20 min
C[C@H](NC(=O)c1c(C(F)F)nn(C)c1Oc1cccc(C(F)(F)F)c1)c1ccc(C(=O)O)cc1,irRECIST,"human, advanced tumours",125 mg,best overall response,partial response,0%
COc1ccc(F)cc1C(=O)NCc1ccc(-c2nn([C@@H](C)C(F)(F)F)c(N)c2C(N)=O)cc1,,CLL/SLL patients,dose not given,,patients remaining on treatment,88%
COc1ccc(F)cc1C(=O)NCc1ccc(-c2nn([C@@H](C)C(F)(F)F)c(N)c2C(N)=O)cc1,,mouse Rec1 xenograft,"oral, 10 mg/kg twice daily",,tumour growth inhibition,80%
C[C@@H]1COCCN1c1cc([C@]2(O)C[C@H]3CC[C@@H](C2)O3)c2cnn(-c3cc[nH]n3)c2n1,,LoVo xenograft mice,"7 mg/kg once daily for 7 days, day 17",,tumour growth inhibition,46.5 ± 11%

# Excerpt of the above:
SMILES,assay,system,conditions,how to read,measurement,result
C[C@@H](O)CCOC(=O)C[C@@H](C)O,,"human, plasma","60 min, log2-transformed values",,metabolite level,4.54 ± 0.25 µmol/L
N#Cc1ccc2c(-c3ccncc3)c(-c3ccc(F)cc3)nn2c1,"kinase binding, competitor, MIB/MS competition, refers to: CMK2",Candida albicans cell lysate,1 µM,relative to: DMSO,log2 fold change,-0.0537
C[C@@H]1COCCN1c1cc([C@]2(O)C[C@H]3CC[C@@H](C2)O3)c2cnn(-c3cc[nH]n3)c2n1,,LoVo xenograft mice,"7 mg/kg once daily for 7 days, day 17",,tumour growth inhibition,46.5 ± 11%
Cn1cc(Nc2nccc(-c3ccc4c(c3)CN(C3COC3)CC[C@H]4NC(=O)c3cn(C(C)(C)C)nn3)n2)cn1,refers to: NFAT in immune response,"splenic B cells, mice","30 mg/kg, IgD-activated in vivo","relative to: vehicle, direction not given",pathway activation z-score,3.9
OC(CCN1CCCCC1)(c1ccccc1)C1CC2C=CC1C2 (centres unmarked),resting-state EEG,healthy elderly humans,"oral, 4 mg, eyes open, LS mean",relative to: baseline,change in EEG Alpha1-power Pz-O2,-27.9%
OCC(O)CO,ELISA,"Mus musculus male wild type, serum","drinking water, 5% w/v, 2 days",,FGF21 level,504 pg/mL and 702 pg/mL and 753 pg/mL and 849 pg/mL and 320 pg/mL
